Results gathered from unrelated publications.
Numbered parts are unrelated; each lists some results of a single study.

Sample 1
Target: Histone acetyltransferase KAT6A, winged helix 2, GST fusion (KAT6A, Homo sapiens, UniProt Q92794, residues 85-181)
Technique: protein binding microarray
Molecule type: double-stranded DNA, one strand shown
Matrix: in vitro
Tested at: not given
Setting: 8-mer, flanks averaged, mean of 2 arrays, mostly near background
Relative to: not given
Direction: higher = stronger binding
Quantity: E-score
Target sequence (chain): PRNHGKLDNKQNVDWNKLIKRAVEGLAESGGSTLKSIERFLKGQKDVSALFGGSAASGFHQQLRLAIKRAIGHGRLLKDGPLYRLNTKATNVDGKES
CTGATCCC: -0.107
AATGCTCC: -0.0882
CAGCCTCA: -0.0174
CTTTGATA: 0.123
AACACGAA: 0.0433
AATCTAAC: -0.02
ACTGCTCC: 0.0181
GTAAACGA: 0.0901
AGCAGTGC: 0.0468
AGTTCGAA: 0.109
ACCCCCCT: -0.18
GCCATACC: -0.0633

Sample 2
Target: RING finger protein unkempt homolog, zinc fingers 1-6, GST-SBP tag (UNK, Homo sapiens, UniProt Q9C0B0, residues 30-357)
UniProt Q9C0B0, sequence (30-357, looked up): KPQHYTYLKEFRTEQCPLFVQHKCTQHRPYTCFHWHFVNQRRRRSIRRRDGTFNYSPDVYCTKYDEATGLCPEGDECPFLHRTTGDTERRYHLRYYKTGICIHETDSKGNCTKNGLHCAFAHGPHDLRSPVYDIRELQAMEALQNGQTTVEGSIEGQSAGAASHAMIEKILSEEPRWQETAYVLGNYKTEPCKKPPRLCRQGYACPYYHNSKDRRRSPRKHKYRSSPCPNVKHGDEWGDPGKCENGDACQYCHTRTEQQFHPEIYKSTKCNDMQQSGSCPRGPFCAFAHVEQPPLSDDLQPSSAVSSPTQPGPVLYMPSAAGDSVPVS
Technique: RNA Bind-n-Seq
Molecule type: RNA
Matrix: in vitro
Tested at: not given
Setting: RNA with constant flanks, human-mouse chimeric sites, ends assumed
Relative to: input RNA pool
Direction: higher = stronger binding
Quantity: bound/input enrichment
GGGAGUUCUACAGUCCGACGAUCGCCACCAGAUCCCAGAAACAUGACCCUUGCUGCCUACAAGGAGAAGAUGAAGGAGCUCCCGCUGGUGUCCUUGUUCUGCUCCUGCUUCCUGGCCGAUCCCCUGAAUAAAUCAUCCUACAACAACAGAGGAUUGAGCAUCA: 0.226 ratio
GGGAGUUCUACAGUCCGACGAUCGUUCGGCUCUGGGAUCAUGCCACAAUGACAGAAGUGAAAUCUCUGAAUUUUAAUAUGUCUGUUAGUAGCAUGGAGUAUAUUCCUGAAGGAGAGAUUUUGGUUAUUACUUAUGGACGAUCUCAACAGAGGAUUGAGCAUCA: 0.348 ratio
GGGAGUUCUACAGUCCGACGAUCUCUUUAAAAAAAAAAUUACCUUUUCUGACAGUGCUUUAUGGAGUAAAGAUCCACGUUCAAGCUCAAAGAGCAAAGGCUCCGCAAACAGCUCAAACAUCUGAUGAAGAAAGAUUUCUGAGACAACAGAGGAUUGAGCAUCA: 0.139 ratio
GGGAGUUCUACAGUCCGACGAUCAUGGAGAAGGAUUCUCUGCCCCGCUUUGUGCGCUCUGAAUUUUAUAAGGAGCUAAUCAAGUAGUCAUCUGGUCAGGCUAUGAAAUCAUGCCCUGUGAGUUGAGUUACAUCCUUUGUAGCACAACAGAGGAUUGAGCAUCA: 0.302 ratio
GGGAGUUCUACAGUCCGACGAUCGUGACUGACAUUAAAAUUUACCCUCAGCAAAGAAGUGCAGUAGUCACCAUAAUUCCAUCUGUGGUGAGUGCCAGUCAGAUUGUGGAGCUGGUCCCAGACCUCAGUUUAGACAUGGGAACUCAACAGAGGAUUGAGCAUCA: 0.316 ratio
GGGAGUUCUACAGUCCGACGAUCUUGGAAGGACCAGAGCCUAAUCAACUGAAACCAUUAGUCAUACAGGCUAUGCCCACCCUAAUAGAAUUAAUGAAAGACCCCAGUGUAGUUGUUCGAGACACAACAGCAUGGACUGUAGGCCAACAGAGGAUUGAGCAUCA: 2.86 ratio
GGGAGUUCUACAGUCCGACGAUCUGUGCAUAUGAUGCUUGAGAUGGUUUUUGCAAAAGCAGAAAUCGCUGCAAGGUCAUUCUAAUAGAGAAAAGUGGUAUUUUAAACCUUUGAAAUAAAUGGAUGUAACUGUACCUUGGUACACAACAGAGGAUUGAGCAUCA: 0.369 ratio

Sample 3
Target: Interferon regulatory factor 5, full length, phosphomimetic (IRF5, Homo sapiens, UniProt Q13568-2, residues 1-514, K96S/S451D/S453D/S456D/S462D)
Technique: protein-binding microarray
Molecule type: double-stranded DNA, one strand shown
Matrix: in vitro
Tested at: 250 nM
Setting: 60-bp whole probe
With: salmon DNA 0.4 mg/ml
Relative to: random background probes
Direction: higher = stronger binding
Quantity: log fluorescence
All sequences stand within: GCCTAGCAC … GTCTTGATTCGCTTGACGCTGCTG
TTAGGTTTCCTTTCCCTTCAGTGCTAG: 1.83 z-score
CTGCATTTTTTTTTTCTACTGTGCTAG: 0.938 z-score
GACGATTTCGGGTTACGAGACGTGCTA: 4.56 z-score
CACGTTGCTCAAGGGCTTGAGTGCTAG: -0.333 z-score
TTTGGTCTCCTTTTCCTTTAGTGCTAG: 0.708 z-score
GACGGTATCGGAACTGGGGACGTGCTA: 1.59 z-score
TCACCTTTATATACCTGACTGTGCTAG: 0.568 z-score
GACGATTTCGTGTATCGAGACGTGCTA: 1.87 z-score

Mixed results
PhoQ, residues 284 288 289 292 302 303 AGGCYF
fold induction (PhoP, residues 12 14 15 18 19 LHATL (Escherichia coli, UniProt P23836); Sort-seq, item: YFP reporter; E. coli; PhoQ-PhoP variant library, with: 10 µM Mg2+; relative to: high Mg2+ state, higher = stronger signaling): 24.3

Excerpt of the above (sample 1):
GCCATACC: -0.0633
CTGATCCC: -0.107
AATGCTCC: -0.0882
ACCCCCCT: -0.18
